Published values collected from several papers.
Every numbered part comes from another study and shows a few of its results, in no order. Positions count from the first letter of the parent shown.

Sample 1 — technique: protein-binding microarray; molecule type: double-stranded DNA, one strand shown; medium: in vitro; concentration: 940 nM top; setting: 60-bp whole probe; with: salmon DNA 0.4 mg/ml; reference: random background probes; direction: higher = stronger binding; all sequences stand within: GCCTAGCAC … GTCTTGATTCGCTTGACGCTGCTG
Target: Interferon regulatory factor 5, full length, phosphomimetic (IRF5, Homo sapiens, UniProt Q13568-2, residues 1-514, S451D/S453D/S456D/S462D)
| Strand | fitted relative affinity [z-score] |
| --- | --- |
| TTAGACTCCAGTTTCGATTAGTGCTAG | 8.59 |
| TCATATTTGCTTCAGGTACTGTGCTAG | 0.138 |
| GACGGACTGGACGATCGGGACGTGCTA | -0.426 |
| GGAAGCTTCTTTTTTATTCTGTGCTAG | 0.901 |
| TTAGGTTCCGGTTTCTGTTAGTGCTAG | 5.07 |
| TTAGATATCAGACTGGAATAGTGCTAG | -0.353 |
| TCACCTTTCTCAACCTCACTGTGCTAG | 1.64 |
| TTAGATATCGGGTATCGATAAGTGCTA | 2.43 |
| GACGAACTGAGTCTCAAGACGTGCTAG | -0.396 |
| ACTTAAACTAGAAACTGACTTGTGCTA | 0.289 |
| TCATTTTTCTAACTAAAACTGTGCTAG | 0.708 |
| TCACTTTCCACTTGTCTTTTCGTGCTA | 2.36 |
| TTAAGTCTCCTTTTCCTTTAGTGCTAG | 1.2 |
| CCATACTTCCCACTGGTCTTGTGCTAG | 0.847 |
| GACGCTTTCGGGACTGGAGACGTGCTA | 1.57 |
| TTAGGTCTCCTACTGCGTTAGTGCTAG | -0.399 |
| TTAGGTATCGGTTTCGGTTGGTGCTAG | 12.7 |
| GACGGTTTCGCGTTTCGGGACGTGCTA | 4.38 |
| TGAGAACTGGGGACTGGATTAGTGCTA | 0.16 |
| GACGGTTTCGCCTTTCGGGACGTGCTA | 6.84 |
| TTAGGTATCAACACTGGGTTAGTGCTA | 1.34 |
| TCAAAAATCTTTGTTGGAACTGTGCTA | -0.137 |
| TTAGATTTTAGACTGGATTAGTGCTAG | -0.146 |
| GACGATTCCAGTTTTGAGACGTGCTAG | 0.0729 |
| GACGGTATCCTTATCATGACGTGCTAG | 0.247 |

Sample 2 — technique: universal PBM; molecule type: double-stranded DNA, one strand shown; medium: in vitro; concentration: 600 nM; direction: higher = stronger binding
Target: Sal-like protein 4, full length isoform A (SALL4, Homo sapiens, UniProt Q9UJQ4, residues 1-1053)
Chain of UniProt Q9UJQ4 (whole entry, looked up): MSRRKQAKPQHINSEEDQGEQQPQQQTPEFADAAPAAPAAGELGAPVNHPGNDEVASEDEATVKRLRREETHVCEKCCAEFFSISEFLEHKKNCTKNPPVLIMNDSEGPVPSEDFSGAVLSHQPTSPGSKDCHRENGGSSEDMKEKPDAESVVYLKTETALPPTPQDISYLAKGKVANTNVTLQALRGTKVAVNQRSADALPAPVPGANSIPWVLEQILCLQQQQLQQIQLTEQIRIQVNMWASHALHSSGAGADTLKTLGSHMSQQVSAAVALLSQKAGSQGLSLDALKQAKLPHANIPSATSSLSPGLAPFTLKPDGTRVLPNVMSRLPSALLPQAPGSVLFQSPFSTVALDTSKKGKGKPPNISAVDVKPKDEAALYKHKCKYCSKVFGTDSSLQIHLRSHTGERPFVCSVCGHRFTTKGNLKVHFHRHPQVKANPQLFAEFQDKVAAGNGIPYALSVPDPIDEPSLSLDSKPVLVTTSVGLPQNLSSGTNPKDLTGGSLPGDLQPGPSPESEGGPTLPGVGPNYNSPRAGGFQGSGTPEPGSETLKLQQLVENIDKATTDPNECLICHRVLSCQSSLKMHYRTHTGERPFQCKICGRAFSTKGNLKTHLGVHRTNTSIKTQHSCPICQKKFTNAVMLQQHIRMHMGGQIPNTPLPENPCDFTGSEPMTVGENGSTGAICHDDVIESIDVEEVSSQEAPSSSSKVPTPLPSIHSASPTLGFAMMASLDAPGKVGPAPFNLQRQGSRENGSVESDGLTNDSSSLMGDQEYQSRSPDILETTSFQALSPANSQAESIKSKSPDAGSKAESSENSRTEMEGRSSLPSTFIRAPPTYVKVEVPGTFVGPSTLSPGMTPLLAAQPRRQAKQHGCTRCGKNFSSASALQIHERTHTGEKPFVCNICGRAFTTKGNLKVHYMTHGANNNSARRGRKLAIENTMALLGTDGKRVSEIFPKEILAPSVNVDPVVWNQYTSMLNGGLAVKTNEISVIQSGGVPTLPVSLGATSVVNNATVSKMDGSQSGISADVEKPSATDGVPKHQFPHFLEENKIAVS
Setting: 8-mer, flanks averaged, mean of replicates
| Strand | E-score |
| --- | --- |
| ACGTTCAT | 0.132 |
| ACAGGTGC | -0.151 |
| CCGACGTA | -0.124 |
| CCCACACC | -0.139 |
| CAGTAACC | -0.167 |
| ACCGGTTC | -0.19 |
| ACGAGAAA | 0.174 |
| CGACAAGA | -0.013 |
| ACTTTTGA | 0.185 |
| ATGGACCG | -0.185 |
| CCGCTGAG | -0.278 |
| CGAATCGA | 0.142 |
| CCTCGTTC | -0.198 |
| CCGGATGC | -0.391 |
| ATCGGAGG | -0.0772 |
| CATGCAGA | -0.0492 |
| GTCTATCA | 0.184 |
| GTTTCAAA | 0.176 |
| AGAAGAAG | -0.0413 |
| ACCTATGC | 0.0573 |
| CAATGGGC | -0.226 |
| CCGTGAGG | -0.421 |

Sample 3 — technique: RNA Bind-n-Seq; molecule type: RNA; medium: in vitro; concentration: 365 nM; reference: no-protein control; direction: higher = stronger binding
Target: RNA binding protein fox-1 homolog 2, RRM domain, GST-SBP tag (RBFOX2, Homo sapiens, UniProt O43251-10, residues 100-194)
Setting: natural RNA segment, single round, ends assumed
All sequences stand within: GGGAGUUCUACAGUCCGACGAUC … UGGAAUUCUCGGGUGCCAA
Construct (chain): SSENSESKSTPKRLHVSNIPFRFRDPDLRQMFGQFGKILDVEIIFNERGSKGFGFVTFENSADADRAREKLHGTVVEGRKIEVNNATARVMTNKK
| Strand | RBNS enrichment (R) |
| --- | --- |
| CCUCCAAAGGUUGAGAGCAAGAAUUGUUUUUUUCUUGGAUAUCAAAGGGAUUAUCACAGCGCAAUCAUUGUCUACAACAACGUGUACACUCAAUGCCUGGGUUACAUAGG | 0.301 |
| GUCCAAUCAUGUGUGUGGUUCCUGCGAGUUGCUGAUGACUCCGCAUUGAAGCUCUCUGAGUUCUUUGAUUUUAAGUUGGGUUUAUGGAAUUUUUUCAAAUGUUGGAAGGU | 0.758 |
| CUAAGAGCCACCUGCUGCAGUUACCAUGGCAUGCUGAGUUGAUGCACCAGGUGGCAGCAGCCAUCCGUUAUUAUUUCCAAUGGAGACCUAGCCCAGGCCAAGGUAAAGUU | 23.5 |
| AGACCCGGGCGCUGCCGAGACCCCUCGGGGGCUGCACACCCAGCAGCAGCGCACGCCUCCGAAGCCUGCGGCCUCGCUUGAAGGAGGGCGUCGCCGGAAACCCAGGGAAC | 0.55 |
| GCAUUAUAGGAAUUAGUCCACCACUGGCGUGGGUGAGCAGCCAGGUAAUGGGAAUUGAUCAGUGCCACCACCCUUGACCCCAACUACCAUCCCAGAUGCCCAGAUUCCAG | 0.599 |
| ACCUGUGUACUUGUACAUUAAAAACAAAAUUAUUGCUGAGUAAGAAGAUAUUUAAUAUAUGAAACUCUCAUAACUGUCAUUAACAGUAUUAAUUAGGUCUAAAUACCGUG | 0.28 |
| UGUUCUCAGAAUUAGACCCCACCUGUACUGUGUUCUAACACUGAGGGUGGUGGCACCUGAUUCAGAGCAGUGUGUGUGUGUGUGAAAAUACUGUAUAUUAAUGAUUAUUG | 0.415 |
| UAGUGCAAAAAGAAUUUCUUAAGGUUUAAAAAAUACACUUUUCAUUAUAGGAAAAAGAAGAUUCAGAGAAACAAAGGAAUGUAACCUUAUUGAUUACAUUUUUGGUGAUC | 0.756 |
| UGUAUUGUAUGGUAGCUCUUUGAGCCUUGGUUGGUCGACUCUAGUGUAAGUUUAAUUAAUUGUAUAUUGUGUGAAUAGAACAACUUAAAUAUUACAGCAAUACACUGGGC | 0.8 |
| AGGGCUGAAAGUACAACGGUUCUUGGUUGGCUUUGCCUCGUGUUUAUAAAACUAGCUACUAUUCUUCAGGUAAAAUACCGAUGUUGUGGAAAAGCCAACCCCGUGGCUGC | 0.535 |
| CCUAUUGCAACAAAAUUAGGAAGUUUGUUGUAUAAAUAAGCAUGUAAAAGUGCACUUAAAAUGAAUCUUUAUUAUUGCUGAGAUUUUAAUAGACAAUCCAAAGUCUCCCC | 3.37 |
| AUUUAGAAAACGGAAAUGCAGUUUGAAAUUCUGAAUUUGCAAAGUACUGUAACAGUAAUUUAUAGUAAUGUUUUAAAAUCAACUUUUUAUUGCCUUCUCACCAGCUGCAA | 0.606 |

Sample 4 — target: CCND1, cyclin fold, Cln2 fusion (human); technique: yeast growth competition, sequencing; medium: yeast; setting: strong parent motif; reference: not given; direction: higher = stronger binding
Starting sequence: E2F1 docking peptide (human); PPVKRRLDFETDH; partner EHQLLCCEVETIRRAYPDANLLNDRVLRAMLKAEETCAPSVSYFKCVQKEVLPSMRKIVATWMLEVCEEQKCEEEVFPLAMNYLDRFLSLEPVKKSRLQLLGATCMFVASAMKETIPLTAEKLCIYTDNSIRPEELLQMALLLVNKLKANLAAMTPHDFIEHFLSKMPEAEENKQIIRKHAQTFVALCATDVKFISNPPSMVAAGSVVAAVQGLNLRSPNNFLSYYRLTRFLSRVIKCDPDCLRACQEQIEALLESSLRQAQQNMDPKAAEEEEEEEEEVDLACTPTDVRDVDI
| Variant | normalised enrichment score |
| --- | --- |
| E10M | 1.79 |
| R6I | 1.33 |
| T11P | 2.48 |
| V3C | 2.3 |
| D8K | 1.55 |
| T11W | 2.8 |
| K4S | 3.14 |
| K4D | 0.479 |
| D8W | 1.09 |
| V3I | 2.33 |
| T11I | 2.74 |
| P2N | 2.49 |
| R5S | -0.152 |
| P2H | 1.62 |
| L7S | -0.107 |
| K4Y | 1.38 |
| T11A | 2.62 |
| T11E | 3.27 |
| L7G | -0.292 |
| R5T | 0.204 |
| R5Q | 0.606 |
| L7W | -0.149 |
| R5G | 0.463 |
| E10C | 2.47 |
| E10V | 1.44 |

Sample 5 — technique: protein binding microarray; molecule type: double-stranded DNA, one strand shown; medium: in vitro; concentration: not given; reference: not given; direction: higher = stronger binding
Target: Histone acetyltransferase KAT6A, both winged helices, GST fusion (KAT6A, Homo sapiens, UniProt Q92794, residues 1-181)
Setting: 8-mer, flanks averaged, mean of 2 arrays, mostly near background
Target sequence (chain): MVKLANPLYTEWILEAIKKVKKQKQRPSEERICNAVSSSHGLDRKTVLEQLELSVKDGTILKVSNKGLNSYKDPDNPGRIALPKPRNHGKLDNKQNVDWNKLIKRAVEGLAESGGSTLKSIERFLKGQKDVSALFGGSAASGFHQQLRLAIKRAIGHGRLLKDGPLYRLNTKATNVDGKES
| Strand | E-score |
| --- | --- |
| ACGGAATA | 0.263 |
| TAGAGTCA | 0.0059 |
| AACGGGAT | 0.159 |
| CCCCTCAA | -0.13 |
| AGCTATCC | -0.168 |
| GCGTACCC | 0.128 |
| ATGCCCAT | -0.211 |
| CCCGCGCA | 0.308 |
| GCACCCGC | 0.263 |
| CATCGATA | 0.0647 |
| CGAATCCG | 0.219 |
| ATAGTGCA | 0.0282 |
| CTCACGCA | 0.0201 |
| AAGAATAT | -0.0832 |
| GAAAACTC | -0.0396 |
| CACATATA | -0.0687 |
| CCTAGTAC | -0.0553 |
| CGTGGCAC | 0.0904 |
| ATTCAAGA | -0.0968 |
| CGCAGCCG | 0.177 |
| CAGCCTAA | -0.241 |
| CAGTAACA | -0.0288 |
| AGTTAGGG | -0.155 |
| AAAGAGGC | -0.13 |
| CTAACGAA | 0.0467 |

Excerpt of the above (sample 3):
| Strand | RBNS enrichment (R) |
| --- | --- |
| AGACCCGGGCGCUGCCGAGACCCCUCGGGGGCUGCACACCCAGCAGCAGCGCACGCCUCCGAAGCCUGCGGCCUCGCUUGAAGGAGGGCGUCGCCGGAAACCCAGGGAAC | 0.55 |
| GCAUUAUAGGAAUUAGUCCACCACUGGCGUGGGUGAGCAGCCAGGUAAUGGGAAUUGAUCAGUGCCACCACCCUUGACCCCAACUACCAUCCCAGAUGCCCAGAUUCCAG | 0.599 |
| ACCUGUGUACUUGUACAUUAAAAACAAAAUUAUUGCUGAGUAAGAAGAUAUUUAAUAUAUGAAACUCUCAUAACUGUCAUUAACAGUAUUAAUUAGGUCUAAAUACCGUG | 0.28 |
| UGUUCUCAGAAUUAGACCCCACCUGUACUGUGUUCUAACACUGAGGGUGGUGGCACCUGAUUCAGAGCAGUGUGUGUGUGUGUGAAAAUACUGUAUAUUAAUGAUUAUUG | 0.415 |
| UAGUGCAAAAAGAAUUUCUUAAGGUUUAAAAAAUACACUUUUCAUUAUAGGAAAAAGAAGAUUCAGAGAAACAAAGGAAUGUAACCUUAUUGAUUACAUUUUUGGUGAUC | 0.756 |
| UGUAUUGUAUGGUAGCUCUUUGAGCCUUGGUUGGUCGACUCUAGUGUAAGUUUAAUUAAUUGUAUAUUGUGUGAAUAGAACAACUUAAAUAUUACAGCAAUACACUGGGC | 0.8 |
| AGGGCUGAAAGUACAACGGUUCUUGGUUGGCUUUGCCUCGUGUUUAUAAAACUAGCUACUAUUCUUCAGGUAAAAUACCGAUGUUGUGGAAAAGCCAACCCCGUGGCUGC | 0.535 |
| CCUAUUGCAACAAAAUUAGGAAGUUUGUUGUAUAAAUAAGCAUGUAAAAGUGCACUUAAAAUGAAUCUUUAUUAUUGCUGAGAUUUUAAUAGACAAUCCAAAGUCUCCCC | 3.37 |
